Experimental data gathered from unrelated publications.
Lines come from different studies, so protocols differ. ± gives the spread as reported.
Organism: Klebsiella pneumoniae

SMILES | test | system | setting | MIC
CC(C)C[C@H](NC(=O)[C@H](Cc1ccc(O)cc1)NC(=O)[C@@H]1CCCN1C(=O)[C@H](CCCNC(=N)N)NC(=O)[C@@H]1CCCN1C(=O)[C@H](CCCCN)NC(=O)[C@H](CC(=O)O)NC(=O)[C@@H]1CCCN1C(=O)[C@H](CCCNC(=N)N)NC(=O)C1(N)CCCCC1)C(=O)N1CCC[C@H]1C(=O)N[C@@H](CCCNC(=N)N)C(=O)N1CCC[C@H]1C(=O)N[C@@H](CCCNC(=N)N)C(=O)N1CCC[C@H]1C(=O)N1CCC[C@H]1C(=O)N[C@@H](CCCNC(=N)N)C(=O)N1CCC[C@H]1C(=O)N[C@H](C(=O)N[C@@H](CCCNC(=N)N)C(=O)N[C@@H](CSCc1ccc(CSC[C@H](NC(=O)[C@H](CCCNC(=N)N)NC(=O)[C@@H](NC(=O)[C@@H]2CCCN2C(=O)[C@H](CCCNC(=N)N)NC(=O)[C@@H]2CCCN2C(=O)[C@@H]2CCCN2C(=O)[C@H](CCCNC(=N)N)NC(=O)[C@@H]2CCCN2C(=O)[C@H](CCCNC(=N)N)NC(=O)[C@@H]2CCCN2C(=O)[C@H](CC(C)C)NC(=O)[C@H](Cc2ccc(O)cc2)NC(=O)[C@@H]2CCCN2C(=O)[C@H](CCCNC(=N)N)NC(=O)[C@@H]2CCCN2C(=O)[C@H](CCCCN)NC(=O)[C@H](CC(=O)O)NC(=O)[C@@H]2CCCN2C(=O)[C@H](CCCNC(=N)N)NC(=O)C2(N)CCCCC2)C(C)C)C(=O)NN)cc1)C(=O)NN)C(C)C | bacterial growth | ATCC 13883, 100% Mueller-Hinton broth | 90 min, 37 °C, strain ATCC 13883 | 3.5 ± 0.6 µg/mL
CC[C@@H](C)[C@@H](NC(=O)[C@@H](C)NC(=O)[C@H](NC(=O)[C@@H](CC(=O)O)NC(=O)[C@@H](CCCCN)NC(=O)[C@@H](CO)NC(=O)[C@H](NC(=O)[C@@H](CC(N)=O)NC(=O)[C@@H](C)NC(=O)[C@H](NC(=O)[C@@H](CCC(=O)O)NC(=O)[C@@H](CCCCN)NC(=O)[C@H](NC(=O)[C@H](NC(=O)[C@@H](Cc1c[nH]cn1)NC(=O)[C@@H](CCCCN)NC(=O)[C@H](NC(=O)[C@@H](CCCCN)NC(=O)[C@@H](CCCCN)NC(=O)[C@H](NC(=O)[C@@H](CC(C)C)NC(=O)[C@@H](CCCCN)NC(=O)[C@@H](CC(N)=O)NC(=O)[C@@H](Cc1ccccc1)NC(=O)[C@@H](CCCNC(=N)N)NC(=O)[C@@H](CCCCN)NC(=O)[C@@H](CCCNC(=N)N)NC(=O)[C@@H](Cc1ccccc1)NC(=O)CN)C(C)C)C(C)C)[C@H](C)O)[C@H](C)CC)[C@H](C)O)C(C)C)C(C)C)C(=O)N[C@@H](C(=O)N[C@H](C)C(=O)NCC(=O)N[C@H](CO)C(=O)NCC(=O)N[C@@H](C(=O)N[C@H](C)C(=O)N[C@@H](C(=O)NCC(=O)N[C@H](C)C(=O)N[C@H](C)C(=O)N[C@H](CCSC)C(N)=O)C(C)C)C(C)C)C(C)C | broth microdilution | DSM 30104, CAMHB | – | 16 µg/mL
CCCCCCCCCCCCCC(=O)N[C@@H]1CCNC(=O)[C@H](CC(=O)O)NC(=O)[C@H](C(C)C)NC(=O)[C@@H](Cc2ccc(O)cc2)NC(=O)[C@H](CCN)NC(=O)[C@H](CC(C)C)NC(=O)[C@@H](Cc2ccccc2)NC(=O)[C@H](CCN)NC(=O)[C@H](CC(C)C)NC(=O)[C@H](CCN)NC(=O)[C@H]([C@@H](C)O)NC1=O | broth microdilution | BNCC 186113 | – | > 64 µg/mL
CCn1c(-c2ccc(OC)cc2)c(-c2ccc(OC)cc2)n(Cc2c(C)cc(C)cc2C)c1=[Se+][Au-][P+](c1ccccc1)(c1ccccc1)c1ccccc1.[Cl-] | broth microdilution | carbapenem-resistant BAA-1705 | 24 h | > 40 µM
COc1ccc2ccc3c(c2c1)C=[N+]1C2CCCCC2[N+]2=Cc4ccc(-c5ccccc5)cc4[O][Au-]21[O]3.F[P-](F)(F)(F)(F)F (stereo not shown) | bacterial growth, broth microdilution | carbapenem-resistant clinical isolate | 24 h | > 20 µM
c1ccc(CN2CCOCCOCCN(CCCCCCCCCCCCCCN3CCOCCOCCN(CCCCCCCCCCCCCCN4CCOCCOCCN(Cc5ccccc5)CCOCCOCC4)CCOCCOCC3)CCOCCOCC2)cc1 | – | ESBL SHV-12 | – | 24 µM
CN1/C(=C/C=C/c2cc(-c3ccccc3)cc(-c3ccccc3)[o+]2)C(C)(C)c2ccccc21 | broth dilution | NR-15410, KPC | – | 8 µg/mL
COc1ccc2ccc3c(c2c1)C=[N+]1C2CCCCC2[N+]2=Cc4ccc(OCCN5CCCCC5)cc4[O][Au-]21[O]3.F[P-](F)(F)(F)(F)F (stereo not shown) | bacterial growth, broth microdilution | carbapenem-resistant clinical isolate | 24 h | 10 µM
CC(C)[C@H](NC(=O)[C@H](CCCCN)NC(=O)[C@H](CCCNC(=N)N)NC(=O)CNC(=O)[C@H](C)NC(=O)[C@H](CC(N)=O)NC(=O)[C@H](CCCNC(=N)N)NC(=O)[C@@H](NC(=O)[C@H](CCCCN)NC(=O)[C@H](CC(=O)O)NC(=O)[C@@H](NC(=O)[C@@H](NC(=O)[C@H](CCCNC(=N)N)NC(=O)[C@H](CCCNC(=N)N)NC(=O)[C@H](Cc1c[nH]c2ccccc12)NC(=O)[C@H](Cc1c[nH]c2ccccc12)NC(=O)CN)[C@@H](C)O)C(C)C)C(C)C)C(=O)O | – | ATCC 10031 | 18 h, 37 °C | > 256 µg/mL
COc1ccc2c(c1)[O][Au-]13[O]c4ccc5ccc(OC)cc5c4C=[N+]1C1CCCCC1[N+]3=C2.F[P-](F)(F)(F)(F)F (stereo not shown) | bacterial growth, broth microdilution | carbapenem-resistant | 24 h | > 20 µM
CC(C)[C@H](NC(=O)[C@H](CCCNC(=N)N)NC(=O)[C@H](CCCNC(=N)N)NC(=O)[C@@H](NC(=O)[C@H](C)NC(=O)[C@H](CC(N)=O)NC(=O)[C@H](CCCNC(=N)N)NC(=O)[C@@H](NC(=O)[C@H](CCCNC(=N)N)NC(=O)[C@H](CCCNC(=N)N)NC(=O)[C@@H](NC(=O)[C@@H](NC(=O)[C@H](CCCNC(=N)N)NC(=O)[C@H](CCCNC(=N)N)NC(=O)[C@H](Cc1c[nH]c2ccccc12)NC(=O)[C@H](Cc1c[nH]c2ccccc12)NC(=O)CN)[C@@H](C)O)C(C)C)C(C)C)C(C)C)C(=O)O | – | clinical strain | 18 h, 37 °C | 128 µg/mL
COc1ccc2ccc3c(c2c1)C=[N+]1C2CCCCC2[N+]2=Cc4cc(C)ccc4[O][Au-]21[O]3.F[P-](F)(F)(F)(F)F (stereo not shown) | bacterial growth, broth microdilution | carbapenem-resistant | 24 h | > 20 µM
Cc1cc(N)c2cc(NC(=O)c3ccc4cc(C5CC5)ccc4c3)ccc2n1 | – | ATCC 13883 | – | > 100 µM
